# Measured values of several laboratories.
# Compare with care: the assays were run in different laboratories. Several values in a cell are separate wells, animals, samples, runs or records. ± gives the spread as reported.
SMILES,assay,system,conditions,scale,quantity,result
C=CC(=O)N1CC2C(=O)N(CCN(C)C)c3c(c4cc(Cl)c(-c5c(O)cccc5F)nc4n(-c4c(C)ccnc4C(C)C)c3=O)N2CC1C (stereo not drawn),,"SW837, mouse xenograft","oral, 100 mg/kg once daily",,tumour regression,114%
COc1ccc2cc3[n+](cc2c1OCCCOC(=O)c1cscn1)CCc1cc2c(cc1-3)OCO2,,hyperlipidemic hamster,"oral gavage, 24 mg/kg daily, 3 weeks",,plasma total cholesterol reduction,79.2%
COc1cc2c(NC3CCN(C(C)C)CC3)cc(N3CCOCC3)nc2cc1OCCCN1CCCC1,"TMT proteomics, refers to: YWHAZ","5xFAD mice, hippocampus",dose not given,reference: wild-type mice,log2 fold change,-0.00601
COc1cc(O)ccc1CCC(c1ccc(O)cc1)c1cc2c(c(C)c1O)OC(c1ccc(O)cc1)CC2 (mixture of isomers),,human blood,"10 µM, added: A23187",,4-HDHA level,65 ± 32 pg/mL
NC[C@@H](C(=O)Nc1ccc(-c2cn[nH]c2)cc1)c1ccccc1,tonometry,"Macaca cyclopis, ocular normotensive","ocular, 0.1%, 72 h",,IOP,18.2 mmHg
CN1CCC[C@]1(C)/C=C/S(=O)(=O)NC(=O)Nc1c2c(cc3c1CCC3)CCC2,,"human, whole blood ex vivo","12.5 mg twice daily, day 1, 12 h, multiple ascending dose, added: LPS and ATP",,IL-18 inhibition,81.8%
COc1cnc2cccc(N3CCc4c(cc(Cn5ccnc5)cc4-c4cn(C)nc4C(F)(F)F)C3=O)c2c1,,"BALB/c nude mice, MV4-11 xenograft","intraperitoneal, 50 mg/kg, day 14",,tumour volume,169 mm3 and 154 mm3 and 160 mm3 and 186 mm3 and 180 mm3 and 231 mm3 and 181 mm3 and 153 mm3
COC1CN([C@H]2CC[C@H]([C@@]3(C)Oc4c(Cl)cc(C(=O)NCc5c(SC)cc(C)[nH]c5=O)c(C)c4O3)CC2)C1,"RNA-seq, refers to: CFAP54 mouse homolog","mouse, HT-1376 xenograft, whole blood",dose not given,reference: vehicle,log2 fold change,0.219
CC[C@H]1CN([C@@H](CC)c2ccc(C(F)(F)F)cc2)[C@H](CC)CN1c1nc(=O)n(C)c2ccc(C#N)nc12,"T cell priming, refers to: IL-2","BMDC, Mus musculus","96 h, OVA cross-presentation, added: OT-1 CD8+ T cells, OVA",,EC50,22 nM
CC(=O)[O-].O.[Cu+2].[O-]c1ccc(Br)cc1C=NCCN1CCOCC1,hydroxyl radical scavenging,,200 µM,,inhibition,47.2%
O=[N+]([O-])[O-].O=c1c(C=NN=C([S-])Nc2ccccc2)coc2ccccc12.[Cu+2].c1cnc2c(c1)ccc1cccnc12,DNA cleavage,supercoiled pUC19 DNA,"100 µM, 4 h, 37 °C, no reducing agent, added: DNA 40 µM",,nicked circular DNA form,19%
COc1ccc(C(=O)CCc2cc(C(CCc3ccc(O)cc3OC)c3ccc(O)cc3)c(O)cc2OC)cc1 (racemic),,human blood,"0.3 µM, added: A23187",,5-HEPE level,110 ± 33 pg/mL
CCCCCCCCN(CCC(=O)Nc1ccccc1)C(=O)c1ccccn1,immunofluorescence,"Lmna G609G/G609G progeroid mice, aortic arch",dose not given,reference: vehicle,loss of vascular smooth muscle cells,25%
CC(C)c1ccc(N(C)c2ccc3c(c2)OCC[C@H]3CNc2cnccc2C(=O)O)cc1,,mouse gastric cancer PDX sample A,"22.5 mg/kg, day 38",,tumour growth inhibition,41%
O=S(=O)(NCc1ccncc1)c1ccc(C2CCCCC2)cc1,Y maze,CK littermate mice,"ip, 0.3 mg/kg daily, 6 wk",above chance,novel arm preference,16.3 ± 11.1%
CC(CCC(=O)NCc1ccc(C(=O)NO)cc1)C1CCC2C3C(O)CC4CC(O)CCC4(C)C3CCC12C (stereo not drawn),refers to: CA,"PCK rat (Pkhd1 mutant), portal blood","oral gavage, dose not given, 5 months",reference: total bile acids,relative abundance,43.4%
COc1cc(N2CCN(C(=O)C3CCCN3)CC2)ccc1Nc1ncc(Cl)c(Nc2ccccc2P(C)(C)=O)n1 (stereo not drawn),,"nude mice, NCI-H3122 xenograft","intraperitoneal, 10 mg/kg every other day, day 16",,tumour volume,76.6 mm3 and 163 mm3 and 160 mm3 and 133 mm3 and 131 mm3
N[C@@H](CNC(=O)N[C@@H](CS)C(=O)NCC(=O)O)C(=O)O,Western blot,"mouse C57BL/6, Aβ i.c.v. model, brain","intranasal, dose not given",,RAGE activation,decreased
